Experimental data gathered from unrelated publications.
Parts stem from different laboratories: compare values within a part only.

Block 1
Target: RNA binding protein fox-1 homolog 2, RRM domain, GST-SBP tag (RBFOX2, Homo sapiens, UniProt O43251-10, residues 100-194)
Technique: RNA Bind-n-Seq
Molecule type: RNA
Medium: in vitro
Concentration: 365 nM
Setting: natural RNA segment, single round, ends assumed
Baseline: no-protein control
Direction: higher = stronger binding
Construct (chain): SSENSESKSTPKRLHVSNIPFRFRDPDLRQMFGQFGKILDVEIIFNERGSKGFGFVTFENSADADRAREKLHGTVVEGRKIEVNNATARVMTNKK
Sequence	RBNS enrichment (R)
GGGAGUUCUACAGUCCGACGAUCUCACUGGGUAGUAUCACACAGGUGUGUCUGGGUUGAGAUGUUACUCCUCUGAAUGAAUAGGAGGAUGGUACCAGCCAUGACAGAAACACCAGCAUUAGGUAUUACUACCUUGGAAUUCUCGGGUGCCAA	2.48
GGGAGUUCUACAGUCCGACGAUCUCUAAGAUUAUAAAAUAAGCAGGUACUUUAUUUACUAUGUUGUACUCUGCAGUGUUGAUUUUUUAAAGUAGUUUUCUGCAAUGAGCUUUUAGUCUAAGGAAAGCAUAGAUUGGAAUUCUCGGGUGCCAA	0.502
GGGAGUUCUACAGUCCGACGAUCAAGGGAAAUGCAUUUCUUAGAAAUCCGUGAACCCUCAGUUGUAUGCUUUCAGUACUCGUGUUAAUAUGUUUCUAUGGCAACUCUGAGGUCAGUGGUUUAGAAAUGAGAUAUGGAAUUCUCGGGUGCCAA	0.564
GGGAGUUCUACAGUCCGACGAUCUAUAAUGUAACGUUUUAUUUCAAUUGUUUAUAUGGAUAGUCUGAGCAGGUACGGUUCUGAUUCUGAUUGCUAUCAAUAACACCCCAUACUUUCUUUGAACAUACUUUGACUGGAAUUCUCGGGUGCCAA	0.323
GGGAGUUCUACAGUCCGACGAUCUAUAAAAGUUUUCUUGUGUUUUUCUGUGAGUGAAAAUUUUGUAAUAAAUUAACAAAUUUGUACAAUUUCCUCUGUCCCUUGUUAUACAUCCCUGCAUACAUCUUUUCACCUGGAAUUCUCGGGUGCCAA	1.35
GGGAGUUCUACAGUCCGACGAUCUGGAAAAUUAAACUUUAAUUUAUUGACAUUGUACAUAGCUCUGUGUAAAUAGAAUUGCAACUGUCAGGUUUUGUGUUCUUGUUUUCCUUUAGUUGGGUUUAUUUCCAGGUUGGAAUUCUCGGGUGCCAA	0.402
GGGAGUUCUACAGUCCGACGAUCAGGCCUCUCCUGCUCAGUCUAGCUCUACAAAGUUCUGUAAAAGACUGGUCCGCAUAUAUAAAGGUCACCAGGAAGCACAGUCAUAAACCUGGUCCCCCACCUAUCAGCACUGGAAUUCUCGGGUGCCAA	0.398
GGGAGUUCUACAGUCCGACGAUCUAUGAGGUUACCUACAACUACUUAAUGUACUUACACUGUAAGCCUUGUUGCUUUACCCAAGACAAAUGUAAUUUUAUCAUUGCUUAUGUAGUAUUUUUCUUUUGGAAAUGUGGAAUUCUCGGGUGCCAA	0.363

Block 2
Target: Prothrombin, mature alpha-thrombin (F2, Homo sapiens, UniProt P00734)
Technique: aptamer microarray, sandwich
Molecule type: DNA with 2'F-ANA
Medium: in vitro
Concentration: 200 nM
Setting: whole 15-mer aptamer, many near background
Together with: Cy3 exosite-II aptamer, 400 nM
Direction: higher = stronger binding
Sequence: GGTTGGTGTGGTTGG
Modification	mean fluorescence intensity [a.u.]
2'F-ANA at 1 3 4 7 8 10 12 14 15	51.7
2'F-ANA at 1 4 5 7 10 11 13 14	54.3
2'F-ANA at 3 6 7 8 9 11 12 14 15	436
2'F-ANA at 1 2 6 7 8 9 10 11 13	52.4
2'F-ANA at 1 2 4 5 6 7 8 9 11 12 14	48.5
2'F-ANA at 1 2 3 4 5 6 7 9 13 14 15	50
2'F-ANA at 1 3 5 6 7 9 11 12 13 14 15	448
2'F-ANA at 1 3 4 7 9 10 12	87
2'F-ANA at 3 4 7 8 9 11 12 13	784
2'F-ANA at 1 2 7 8 9 13 15	145
2'F-ANA at 3 4 6 7 9 13 14	220
2'F-ANA at 4 6 11 12 14	106
2'F-ANA at 1 3 4 7 8 9 11 13 14	72.6
2'F-ANA at 2 5 7 8 10 13 15	47.3
2'F-ANA at 1 4 5 6 8 10 11 12 14 15	50.4
2'F-ANA at 1 2 4 8 10 12 15	71.6
2'F-ANA at 2 4 10 13 14	70.1
2'F-ANA at 1 4 5 6 7 10 13 15	69.1
2'F-ANA at 1 5 6 7 9 10 11 15	50.6
2'F-ANA at 2 3 6 7 8 9 10 12 13 14	251
2'F-ANA at 1 3 4 7 8 12 13 15	419
2'F-ANA at 2 3 4 6 7 9 12 15	707

Block 3
Target: Sal-like protein 4, full length isoform A (SALL4, Homo sapiens, UniProt Q9UJQ4, residues 1-1053)
UniProt Q9UJQ4, sequence (whole entry, looked up): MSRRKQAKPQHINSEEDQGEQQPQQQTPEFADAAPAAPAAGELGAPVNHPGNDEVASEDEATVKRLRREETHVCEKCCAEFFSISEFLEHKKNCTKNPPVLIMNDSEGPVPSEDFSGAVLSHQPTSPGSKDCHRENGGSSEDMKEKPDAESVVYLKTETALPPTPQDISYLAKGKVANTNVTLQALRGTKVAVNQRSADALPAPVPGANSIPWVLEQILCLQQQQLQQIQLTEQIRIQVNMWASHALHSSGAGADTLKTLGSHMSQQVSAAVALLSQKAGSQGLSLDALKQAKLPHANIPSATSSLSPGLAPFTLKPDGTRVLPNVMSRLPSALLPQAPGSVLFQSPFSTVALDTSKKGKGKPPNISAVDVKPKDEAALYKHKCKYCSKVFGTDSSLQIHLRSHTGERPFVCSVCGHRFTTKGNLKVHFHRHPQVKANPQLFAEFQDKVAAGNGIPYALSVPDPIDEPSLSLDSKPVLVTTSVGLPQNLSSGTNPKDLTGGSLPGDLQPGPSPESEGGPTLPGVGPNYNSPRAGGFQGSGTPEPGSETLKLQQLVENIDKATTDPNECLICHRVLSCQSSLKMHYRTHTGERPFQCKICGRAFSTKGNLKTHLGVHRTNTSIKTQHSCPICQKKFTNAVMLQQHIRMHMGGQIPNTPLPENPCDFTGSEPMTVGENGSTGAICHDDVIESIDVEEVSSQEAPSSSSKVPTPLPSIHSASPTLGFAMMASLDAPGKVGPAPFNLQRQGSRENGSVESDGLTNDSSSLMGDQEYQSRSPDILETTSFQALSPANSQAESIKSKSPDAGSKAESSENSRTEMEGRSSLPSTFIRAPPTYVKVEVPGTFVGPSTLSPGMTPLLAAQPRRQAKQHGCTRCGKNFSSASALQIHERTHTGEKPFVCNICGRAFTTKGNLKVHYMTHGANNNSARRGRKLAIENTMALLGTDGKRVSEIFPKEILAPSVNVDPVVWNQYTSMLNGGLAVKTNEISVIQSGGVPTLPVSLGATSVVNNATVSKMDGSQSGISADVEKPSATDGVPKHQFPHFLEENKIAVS
Technique: universal PBM
Molecule type: double-stranded DNA, one strand shown
Medium: in vitro
Concentration: 600 nM
Setting: 8-mer, flanks averaged, mean of replicates
Direction: higher = stronger binding
Sequence	E-score
GCCGGAGC	-0.254
CAGAAACG	-0.0478
AGCCGCAC	-0.257
ACCACAGG	-0.068
CAACCTTC	-0.0259
CACCGCTA	-0.141
TAGAGATA	0.172
GAGAGATA	0.19
TACGAAGA	0.193
AAGAGGCC	-0.276
ATTAGGGC	0.0509
GAGAAACA	0.213
AAGTCTCA	0.0422
GCGTGTCA	-0.0181
CGTGCCGA	-0.251
AATCTGCC	-0.0878
ACGGATTG	-0.142
ACGCCCAG	-0.278
AGCCTGGC	-0.278
TCCGAAGA	-0.0226

Block 4
Target: Protein C-ets-1 (ETS1, Homo sapiens, UniProt P14921, residues 1-441, full length assumed)
UniProt P14921, sequence (whole entry, looked up): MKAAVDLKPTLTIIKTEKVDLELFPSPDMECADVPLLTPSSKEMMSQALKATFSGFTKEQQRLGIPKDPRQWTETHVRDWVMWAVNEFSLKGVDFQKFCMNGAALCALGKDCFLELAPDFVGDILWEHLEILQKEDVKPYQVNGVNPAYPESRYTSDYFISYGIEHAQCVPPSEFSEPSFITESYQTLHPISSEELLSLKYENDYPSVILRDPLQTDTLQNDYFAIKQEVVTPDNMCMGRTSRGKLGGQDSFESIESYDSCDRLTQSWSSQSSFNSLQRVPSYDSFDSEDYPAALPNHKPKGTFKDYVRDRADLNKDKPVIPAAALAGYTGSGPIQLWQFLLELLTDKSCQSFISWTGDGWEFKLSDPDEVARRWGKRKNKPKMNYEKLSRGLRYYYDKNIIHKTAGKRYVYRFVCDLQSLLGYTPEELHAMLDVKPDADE
Technique: protein-binding microarray
Molecule type: double-stranded DNA, one strand shown
Medium: in vitro
Concentration: not given
Setting: k-mer, scored over probes, only values ≥0.25
Direction: higher = stronger binding
Sequence	E-score
CGACTTCC	0.459
ATCCGTAG	0.277
GCTTCCCC	0.347
ATACCGGA	0.443
ATCCCCAC	0.251
TAAAGGGA	0.256
AGTCGGAA	0.318
CCCGGCGG	0.271
CGATTTCC	0.405
CAAAGGAA	0.273
TCCGGTAA	0.467
AGGAAGAA	0.341
GGGCGGAA	0.462
CCGGGACA	0.304
AACTTCCC	0.422
TAACGGAA	0.395
GGTCGGAA	0.318

For quick reference, copied from above (block 2):
Modification	mean fluorescence intensity [a.u.]
2'F-ANA at 3 6 7 8 9 11 12 14 15	436
2'F-ANA at 1 2 6 7 8 9 10 11 13	52.4
2'F-ANA at 1 2 4 5 6 7 8 9 11 12 14	48.5
2'F-ANA at 1 2 3 4 5 6 7 9 13 14 15	50
2'F-ANA at 1 3 5 6 7 9 11 12 13 14 15	448
2'F-ANA at 1 3 4 7 9 10 12	87
2'F-ANA at 3 4 7 8 9 11 12 13	784
2'F-ANA at 1 2 7 8 9 13 15	145
